Measured values gathered from unrelated publications.
Parts stem from different laboratories: compare values within a part only.
Chain of UniProt P11802 (whole entry, looked up): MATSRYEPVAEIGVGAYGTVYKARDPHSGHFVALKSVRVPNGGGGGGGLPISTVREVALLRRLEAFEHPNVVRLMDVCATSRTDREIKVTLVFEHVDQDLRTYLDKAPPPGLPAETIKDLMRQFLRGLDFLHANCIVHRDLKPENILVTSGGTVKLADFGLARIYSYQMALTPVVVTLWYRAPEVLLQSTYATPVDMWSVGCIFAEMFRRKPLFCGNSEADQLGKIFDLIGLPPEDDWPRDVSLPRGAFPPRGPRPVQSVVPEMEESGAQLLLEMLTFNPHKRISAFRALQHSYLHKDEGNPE
Chain of UniProt P54762 (whole entry, looked up): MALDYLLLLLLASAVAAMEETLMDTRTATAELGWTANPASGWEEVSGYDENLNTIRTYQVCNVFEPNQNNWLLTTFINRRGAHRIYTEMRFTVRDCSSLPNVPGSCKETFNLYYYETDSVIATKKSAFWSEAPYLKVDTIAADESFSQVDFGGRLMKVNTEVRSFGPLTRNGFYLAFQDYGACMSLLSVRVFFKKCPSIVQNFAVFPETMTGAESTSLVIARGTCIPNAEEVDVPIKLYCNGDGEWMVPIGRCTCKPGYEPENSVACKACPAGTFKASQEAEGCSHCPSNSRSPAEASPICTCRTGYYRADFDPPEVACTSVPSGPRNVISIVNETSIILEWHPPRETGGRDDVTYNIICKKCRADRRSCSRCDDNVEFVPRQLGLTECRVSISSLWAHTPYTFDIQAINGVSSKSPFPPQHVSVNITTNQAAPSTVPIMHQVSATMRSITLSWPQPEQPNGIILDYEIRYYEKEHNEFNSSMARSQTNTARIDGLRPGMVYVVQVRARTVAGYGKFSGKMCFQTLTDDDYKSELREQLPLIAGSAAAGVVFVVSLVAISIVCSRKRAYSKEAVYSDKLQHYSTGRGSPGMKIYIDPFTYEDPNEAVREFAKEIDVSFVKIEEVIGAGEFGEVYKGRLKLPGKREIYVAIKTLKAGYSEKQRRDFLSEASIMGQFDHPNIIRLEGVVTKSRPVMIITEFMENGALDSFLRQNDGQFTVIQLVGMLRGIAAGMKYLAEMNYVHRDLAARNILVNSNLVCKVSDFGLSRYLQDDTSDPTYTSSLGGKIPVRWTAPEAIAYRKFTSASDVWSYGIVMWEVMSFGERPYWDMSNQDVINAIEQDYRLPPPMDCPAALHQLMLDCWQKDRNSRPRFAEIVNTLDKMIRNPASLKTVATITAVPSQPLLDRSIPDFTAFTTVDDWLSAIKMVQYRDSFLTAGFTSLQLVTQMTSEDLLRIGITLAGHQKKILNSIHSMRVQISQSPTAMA
Chain of UniProt O75582 (whole entry, looked up): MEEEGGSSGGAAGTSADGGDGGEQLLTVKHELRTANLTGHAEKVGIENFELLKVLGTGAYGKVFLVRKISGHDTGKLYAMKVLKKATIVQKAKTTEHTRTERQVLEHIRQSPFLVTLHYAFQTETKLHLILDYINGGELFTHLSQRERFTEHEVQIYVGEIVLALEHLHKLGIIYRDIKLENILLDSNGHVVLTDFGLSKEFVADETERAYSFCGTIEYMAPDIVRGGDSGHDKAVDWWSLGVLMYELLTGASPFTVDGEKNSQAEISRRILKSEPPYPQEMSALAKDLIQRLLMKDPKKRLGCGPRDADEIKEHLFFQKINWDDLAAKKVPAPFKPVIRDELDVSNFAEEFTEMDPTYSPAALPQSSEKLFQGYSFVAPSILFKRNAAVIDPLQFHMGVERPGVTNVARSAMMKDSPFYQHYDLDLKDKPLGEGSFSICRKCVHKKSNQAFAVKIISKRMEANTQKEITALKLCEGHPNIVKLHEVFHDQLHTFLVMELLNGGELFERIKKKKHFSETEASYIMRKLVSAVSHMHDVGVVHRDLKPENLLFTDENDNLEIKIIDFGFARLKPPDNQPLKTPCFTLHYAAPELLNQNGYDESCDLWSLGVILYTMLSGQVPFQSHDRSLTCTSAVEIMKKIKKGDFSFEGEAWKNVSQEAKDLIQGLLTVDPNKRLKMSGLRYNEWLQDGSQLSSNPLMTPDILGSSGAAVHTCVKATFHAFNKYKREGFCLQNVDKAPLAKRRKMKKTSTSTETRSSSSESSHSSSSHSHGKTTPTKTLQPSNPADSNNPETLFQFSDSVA
Chain of UniProt O14976 (whole entry, looked up): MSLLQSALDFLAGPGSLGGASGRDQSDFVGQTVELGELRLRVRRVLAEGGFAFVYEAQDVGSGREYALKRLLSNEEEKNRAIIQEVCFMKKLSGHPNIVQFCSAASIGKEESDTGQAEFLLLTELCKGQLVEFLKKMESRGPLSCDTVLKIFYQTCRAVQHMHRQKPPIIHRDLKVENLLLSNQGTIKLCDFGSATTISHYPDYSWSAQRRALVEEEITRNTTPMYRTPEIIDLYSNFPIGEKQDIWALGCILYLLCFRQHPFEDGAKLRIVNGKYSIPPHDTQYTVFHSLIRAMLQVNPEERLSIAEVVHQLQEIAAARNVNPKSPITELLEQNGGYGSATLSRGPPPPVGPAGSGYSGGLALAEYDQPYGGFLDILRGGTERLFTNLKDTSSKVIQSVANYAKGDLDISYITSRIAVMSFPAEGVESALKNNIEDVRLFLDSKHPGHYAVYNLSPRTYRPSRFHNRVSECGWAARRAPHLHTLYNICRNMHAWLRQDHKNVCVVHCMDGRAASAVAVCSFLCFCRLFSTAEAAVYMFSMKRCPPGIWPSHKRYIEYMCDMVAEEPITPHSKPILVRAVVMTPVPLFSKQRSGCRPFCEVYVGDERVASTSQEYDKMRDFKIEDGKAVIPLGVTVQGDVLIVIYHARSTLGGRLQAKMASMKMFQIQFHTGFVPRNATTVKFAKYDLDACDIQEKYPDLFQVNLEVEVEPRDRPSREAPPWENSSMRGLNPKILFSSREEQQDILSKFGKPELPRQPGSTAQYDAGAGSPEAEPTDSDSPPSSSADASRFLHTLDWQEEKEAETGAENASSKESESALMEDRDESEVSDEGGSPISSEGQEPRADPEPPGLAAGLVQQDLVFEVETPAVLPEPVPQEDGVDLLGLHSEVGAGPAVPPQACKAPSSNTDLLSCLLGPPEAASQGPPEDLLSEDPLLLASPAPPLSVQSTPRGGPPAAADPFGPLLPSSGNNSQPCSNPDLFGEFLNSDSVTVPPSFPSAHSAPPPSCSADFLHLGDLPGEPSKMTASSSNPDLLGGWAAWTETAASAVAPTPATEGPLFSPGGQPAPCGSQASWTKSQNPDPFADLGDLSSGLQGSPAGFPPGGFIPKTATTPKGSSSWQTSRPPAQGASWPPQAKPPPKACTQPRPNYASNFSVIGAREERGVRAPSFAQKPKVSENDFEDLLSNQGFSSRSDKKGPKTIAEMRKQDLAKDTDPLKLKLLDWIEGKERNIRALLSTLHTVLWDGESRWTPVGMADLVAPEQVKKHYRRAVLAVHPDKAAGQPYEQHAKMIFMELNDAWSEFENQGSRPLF
Chain of UniProt Q16816 (whole entry, looked up): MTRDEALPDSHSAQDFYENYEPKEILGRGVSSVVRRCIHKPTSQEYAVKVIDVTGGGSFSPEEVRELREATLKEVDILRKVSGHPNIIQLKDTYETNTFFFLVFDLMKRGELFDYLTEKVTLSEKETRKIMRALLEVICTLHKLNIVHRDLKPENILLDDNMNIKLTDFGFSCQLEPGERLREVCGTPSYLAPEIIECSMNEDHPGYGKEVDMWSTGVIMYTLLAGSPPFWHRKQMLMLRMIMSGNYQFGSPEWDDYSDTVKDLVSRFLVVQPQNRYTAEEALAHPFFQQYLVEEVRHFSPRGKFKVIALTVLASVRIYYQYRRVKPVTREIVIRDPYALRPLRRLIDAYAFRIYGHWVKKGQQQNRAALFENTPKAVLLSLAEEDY
Chain of UniProt Q9HBY8 (whole entry, looked up): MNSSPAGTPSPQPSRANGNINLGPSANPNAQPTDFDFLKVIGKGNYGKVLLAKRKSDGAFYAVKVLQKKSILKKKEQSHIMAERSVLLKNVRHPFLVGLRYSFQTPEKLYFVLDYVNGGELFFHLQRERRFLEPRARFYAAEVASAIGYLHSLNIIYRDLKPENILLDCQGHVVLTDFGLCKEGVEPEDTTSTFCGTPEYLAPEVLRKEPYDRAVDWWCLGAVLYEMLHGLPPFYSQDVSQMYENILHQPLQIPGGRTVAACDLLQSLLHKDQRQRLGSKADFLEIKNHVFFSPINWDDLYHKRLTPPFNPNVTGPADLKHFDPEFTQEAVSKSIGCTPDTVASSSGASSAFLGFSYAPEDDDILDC
Chain of UniProt O75716 (whole entry, looked up): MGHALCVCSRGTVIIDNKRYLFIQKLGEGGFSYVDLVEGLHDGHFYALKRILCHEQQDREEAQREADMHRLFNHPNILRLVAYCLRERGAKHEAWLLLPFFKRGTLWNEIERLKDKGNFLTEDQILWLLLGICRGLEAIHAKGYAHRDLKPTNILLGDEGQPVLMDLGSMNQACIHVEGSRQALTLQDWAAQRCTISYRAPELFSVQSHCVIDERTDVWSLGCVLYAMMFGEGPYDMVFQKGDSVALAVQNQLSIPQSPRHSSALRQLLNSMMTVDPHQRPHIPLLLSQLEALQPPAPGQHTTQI

Set 1
Species: human
Sample: microsomes or S9
Tested at: 2 µM
Time: 0.5 h
Structure (SMILES) | remaining compound
CN(C)Cc1nnc([C@H]2C[C@H](NC(=O)C3CCC(C(C)(C)C)CC3)C2)n1C (some centres unmarked) | 95.3%
CCOC(=O)N1CCN(C(=O)c2ccc(NCCc3ccc(Cl)cc3)c(S(=O)(=O)Nc3ccc(OCC)cc3)c2)CC1 | 2.67%
CCC(NC(=O)CCCc1ccc(Cl)cc1)c1ncnn1CC (centres unmarked) | 6.95%
C=CCc1cc(CNc2ncnc3nn(C)cc23)cc(OC)c1OC | 22%
Cc1c(-c2cc[nH]n2)c2c(C)cccn2c1-c1ccccc1 | 45.2%
Cc1cc(N2C(=O)CC(SCCN)C2=O)no1 (centres unmarked) | 76.6%
CCn1c(N)c(-c2nc3ccccc3[nH]2)c(=O)c2ccccc21 | 85.5%
COc1ccc(NC(=O)N2CCC3(C2)C(=O)Nc2ccccc23)c(OC)c1 (centres unmarked) | 77.1%
COc1ccc(-c2ccnc3cc(C4CCCCC4)nn23)cc1OC1CCCC1 | 95%
Cc1c(-c2cnn(C)c2C)nn(-c2ccc(Cl)cc2)c1-c1cnn(C)c1C | 1.03%
Cc1sc(NC(=O)NCC(CC(C)C)N(C)C)c(C#N)c1C (centres unmarked) | 54.7%
CCOc1cc(=O)n2c(c1C(=O)NC1CCc3ccccc31)CCCCC2 (centres unmarked) | 24.4%
O=C(Cn1ncc2ccccc2c1=O)c1ccc(Cl)cc1 | 27.4%
O=C(Cn1nc2c(cc1=O)CCCC2)NCC1CCC(C(=O)O)CC1 (centres unmarked) | 97.4%

Set 2
Target: Calcium/calmodulin-dependent protein kinase type II subunit alpha (CAMK2A, Homo sapiens, UniProt Q9UQM7)
Chain of UniProt Q9UQM7 (whole entry, looked up): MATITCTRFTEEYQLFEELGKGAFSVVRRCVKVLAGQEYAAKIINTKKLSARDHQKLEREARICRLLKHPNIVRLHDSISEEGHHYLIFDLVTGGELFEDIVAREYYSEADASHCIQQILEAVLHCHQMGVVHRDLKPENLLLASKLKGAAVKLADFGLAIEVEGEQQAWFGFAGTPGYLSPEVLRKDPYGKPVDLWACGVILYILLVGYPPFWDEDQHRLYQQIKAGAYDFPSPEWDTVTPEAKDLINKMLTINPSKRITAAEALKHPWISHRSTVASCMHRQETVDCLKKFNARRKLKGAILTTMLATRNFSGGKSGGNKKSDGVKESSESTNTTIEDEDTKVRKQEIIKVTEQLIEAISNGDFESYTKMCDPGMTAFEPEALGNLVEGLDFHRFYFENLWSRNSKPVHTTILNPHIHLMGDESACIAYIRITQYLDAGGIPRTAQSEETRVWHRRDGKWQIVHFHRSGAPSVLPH
Observed: enzyme activity
Action: inhibitor
Tested at: 10 µM
SMILES | inhibition [%]
CC1(C)C=Cc2c(ccc3c2OC[C@@H](c2ccc(O)cc2O)C3)O1 | 50
O=C1C[C@@H](c2ccc(O)c(O)c2)Oc2cc(O[C@@H]3O[C@H](CO)[C@@H](O)[C@H](O)[C@H]3O)cc(O)c21 | 0
OCc1ccccc1O[C@@H]1O[C@H](CO)[C@@H](O)[C@H](O)[C@H]1O | -20
CN1CCN2c3ncccc3Cc3ccccc3C2C1 (centres unmarked) | -2
CO[C@@H]1[C@@H](O[C@@H]2O[C@H](C)[C@@H](O[C@H]3C[C@@](C)(O)[C@@H](O)[C@H](C)O3)[C@H](N(C)C)[C@H]2O)[C@@H](CC=O)C[C@@H](C)[C@@H](O[C@H]2CC[C@H](N(C)C)[C@@H](C)O2)/C=C/C=C/C[C@@H](C)OC(=O)C[C@H]1O | -1
CC1(C)O[C@@H]2C[C@H]3[C@@H]4C[C@H](F)C5=CC(=O)CC[C@]5(C)[C@H]4[C@@H](O)C[C@]3(C)[C@]2(C(=O)CO)O1 | -8
CC(C)=CCOc1c2ccoc2cc2oc(=O)ccc12 | -16
C[C@H]1COC2=C1C(=O)C(=O)c1c2ccc2c1CCCC2(C)C | 23
NCCS | 14
C[C@H](CCC(=O)NCC(=O)NCCS(=O)(=O)O)[C@H]1CC[C@H]2[C@@H]3[C@H](O)C[C@@H]4C[C@H](O)CC[C@]4(C)[C@H]3C[C@H](O)[C@]12C | -4

Set 3
Structure (SMILES): N#Cc1c(NC(=O)c2cccc3ccccc23)sc2c1CCCC2
Observed: enzyme activity
Action: inhibitor
Tested at: 0.5 µM
Relative to: control
target | remaining activity
STK16 (Homo sapiens, UniProt O75716) | 98.5%
EPHA4 (Homo sapiens, UniProt P54764) | 99%
PRKACG (Homo sapiens, UniProt P22612) | 111%
MAP4K4 (Homo sapiens, UniProt O95819) | 88.9%
TSSK2 (Homo sapiens, UniProt Q96PF2) | 104%
PDPK1 (Homo sapiens, UniProt O15530) | 92.1%
RPS6KA5 (Homo sapiens, UniProt O75582) | 99.6%
PHKG1 (Homo sapiens, UniProt Q16816) | 93.8%
Cyclin-dependent kinase 6, with cyclin D3 (CDK6, Homo sapiens, UniProt Q00534) | 99%
HIPK4 (Homo sapiens, UniProt Q8NE63) | 110%
BLK (Homo sapiens, UniProt P51451) | 105%
Cyclin-dependent kinase 1, with cyclin B (CDK1, Homo sapiens, UniProt P06493) | 111%
DYRK3 (Homo sapiens, UniProt O43781) | 128%
WNK3 (Homo sapiens, UniProt Q9BYP7) | 99.2%
MAPKAPK3 (Homo sapiens, UniProt Q16644) | 102%
AXL (Homo sapiens, UniProt P30530) | 106%
EPHB1 (Homo sapiens, UniProt P54762) | 95.9%
CAMK2B (Homo sapiens, UniProt Q13554) | 101%
Cyclin-dependent kinase 4, with cyclin D3 (CDK4, Homo sapiens, UniProt P11802) | 97.1%
STK17A (Homo sapiens, UniProt Q9UEE5) | 104%
RPS6KA6 (Homo sapiens, UniProt Q9UK32) | 101%
EPHB4 (Homo sapiens, UniProt P54760) | 99.5%

Set 4
Compound: Cc1cc(-n2nc(Cc3cc(F)cc(C(F)(F)F)c3)nc2C)ccc1C(N)=O
Tested at: 1 µM
target | test | remaining binding [%]
SIK1 (Homo sapiens, UniProt P57059) | competition binding | 100
HIPK3 (Homo sapiens, UniProt Q9H422) | cell-free assay, competition with immobilised ligand | 100
CAMK2D (Homo sapiens, UniProt Q13557) | cell-free assay, competition with immobilised ligand | 100
ACVR2A (Homo sapiens, UniProt P27037) | cell-free assay, competition with immobilised ligand | 100
KIT (Homo sapiens, UniProt P10721, D816H) | cell-free assay, competition with immobilised ligand | 100
GAK (Homo sapiens, UniProt O14976) | cell-free assay, competition with immobilised ligand | 100
EPHA1 (Homo sapiens, UniProt P21709) | cell-free assay, competition with immobilised ligand | 100
STK32A (Homo sapiens, UniProt Q8WU08) | cell-free assay, competition with immobilised ligand | 85
MAPKAPK2 (Homo sapiens, UniProt P49137) | cell-free assay, competition with immobilised ligand | 100
PAK1 (Homo sapiens, UniProt Q13153) | cell-free assay, competition with immobilised ligand | 95
SGK2 (Homo sapiens, UniProt Q9HBY8) | cell-free assay, competition with immobilised ligand | 100
ALK (Homo sapiens, UniProt Q9UM73, C1156Y) | cell-free assay, competition with immobilised ligand | 100
RIPK4 (Homo sapiens, UniProt P57078) | cell-free assay, competition with immobilised ligand | 95
Ribosomal protein S6 kinase alpha-3, C-terminal kinase domain (RPS6KA3, Homo sapiens, UniProt P51812) | cell-free assay, competition with immobilised ligand | 100
INSRR (Homo sapiens, UniProt P14616) | cell-free assay, competition with immobilised ligand | 100
EGFR (Homo sapiens, UniProt P00533, L858R/T790M) | cell-free assay, competition with immobilised ligand | 90
IRAK3 (Homo sapiens, UniProt Q9Y616) | cell-free assay, competition with immobilised ligand | 100
FLT3 (Homo sapiens, UniProt P36888, ITD) | cell-free assay, competition with immobilised ligand | 100
Myosin-IIIa (MYO3A, Homo sapiens, UniProt Q8NEV4) | binding, competition with immobilised ligand | 100
Cyclin-dependent kinase 4, with cyclin D3 (CDK4, Homo sapiens, UniProt P11802) | cell-free assay, competition with immobilised ligand | 100
FLT3 (Homo sapiens, UniProt P36888, K663Q) | cell-free assay, competition with immobilised ligand | 100
CDK14 (Homo sapiens, UniProt O94921) | cell-free assay, competition with immobilised ligand | 100
WNK4 (Homo sapiens, UniProt Q96J92) | cell-free assay, competition with immobilised ligand | 100
EPHB2 (Homo sapiens, UniProt P29323) | cell-free assay, competition with immobilised ligand | 100
Tyrosine-protein kinase JAK3, JH1 (JAK3, Homo sapiens, UniProt P52333) | cell-free assay, competition with immobilised ligand | 100

Repeated from above (set 1):
Structure (SMILES) | remaining compound
CCn1c(N)c(-c2nc3ccccc3[nH]2)c(=O)c2ccccc21 | 85.5%
COc1ccc(NC(=O)N2CCC3(C2)C(=O)Nc2ccccc23)c(OC)c1 (centres unmarked) | 77.1%
COc1ccc(-c2ccnc3cc(C4CCCCC4)nn23)cc1OC1CCCC1 | 95%
Cc1c(-c2cnn(C)c2C)nn(-c2ccc(Cl)cc2)c1-c1cnn(C)c1C | 1.03%
Cc1sc(NC(=O)NCC(CC(C)C)N(C)C)c(C#N)c1C (centres unmarked) | 54.7%
CCOc1cc(=O)n2c(c1C(=O)NC1CCc3ccccc31)CCCCC2 (centres unmarked) | 24.4%
O=C(Cn1ncc2ccccc2c1=O)c1ccc(Cl)cc1 | 27.4%
O=C(Cn1nc2c(cc1=O)CCCC2)NCC1CCC(C(=O)O)CC1 (centres unmarked) | 97.4%
